Assay results collected from several papers.
Each numbered part is a random draw from the data of one study; scales do not carry over between parts.

Set 1 — method: RNA Bind-n-Seq; molecule type: RNA; matrix: in vitro; concentration: 90 pmol; notes: 4-mer, random 30-nt RNA, single round; with: 3 µM DMDA-PatA, 2 mM ADP, 2 mM phosphate; relative to: input library; direction: higher = stronger binding; measurement: 4-mer enrichment
Target: ATP-dependent RNA helicase DDX3X, helicase core (DDX3X, Homo sapiens, UniProt O00571, residues 132-607)
Chain of UniProt O00571 (132-607, looked up): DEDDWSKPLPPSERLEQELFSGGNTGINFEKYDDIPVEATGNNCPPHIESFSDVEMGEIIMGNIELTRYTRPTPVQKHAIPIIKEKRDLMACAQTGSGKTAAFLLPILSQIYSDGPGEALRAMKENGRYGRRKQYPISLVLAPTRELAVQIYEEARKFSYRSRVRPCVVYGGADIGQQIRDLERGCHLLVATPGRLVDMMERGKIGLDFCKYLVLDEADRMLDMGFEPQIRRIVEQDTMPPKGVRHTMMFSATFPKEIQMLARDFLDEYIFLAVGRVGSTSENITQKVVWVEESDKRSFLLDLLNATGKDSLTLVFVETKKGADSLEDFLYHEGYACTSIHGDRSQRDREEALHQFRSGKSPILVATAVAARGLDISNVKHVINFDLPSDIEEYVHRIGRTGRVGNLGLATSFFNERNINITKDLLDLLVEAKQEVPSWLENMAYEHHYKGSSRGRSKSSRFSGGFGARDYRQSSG
GGUA: 1.01 fold
UAUC: 0.886 fold
GAUC: 0.813 fold
AUAU: 1.01 fold
CUAC: 0.848 fold
GACA: 0.925 fold

Set 2 — method: EMSA with sequencing; molecule type: double-stranded DNA, one strand shown; matrix: in vitro; concentration: 10 and 20 nM; relative to: negative control set to 0; direction: higher = stronger binding; measurement: normalised bound fraction
Target: Hepatocyte nuclear factor 3-alpha (Foxa1, Mus musculus, UniProt P35582, residues 1-468, full length assumed)
Notes: whole designed probe, mean of two concentrations, ends assumed
All sequences stand within: GTGAGCGGTGCCCATTGATGGGGAAC … TTTCACTGGGATCGTGGGGAC
Construct (chain): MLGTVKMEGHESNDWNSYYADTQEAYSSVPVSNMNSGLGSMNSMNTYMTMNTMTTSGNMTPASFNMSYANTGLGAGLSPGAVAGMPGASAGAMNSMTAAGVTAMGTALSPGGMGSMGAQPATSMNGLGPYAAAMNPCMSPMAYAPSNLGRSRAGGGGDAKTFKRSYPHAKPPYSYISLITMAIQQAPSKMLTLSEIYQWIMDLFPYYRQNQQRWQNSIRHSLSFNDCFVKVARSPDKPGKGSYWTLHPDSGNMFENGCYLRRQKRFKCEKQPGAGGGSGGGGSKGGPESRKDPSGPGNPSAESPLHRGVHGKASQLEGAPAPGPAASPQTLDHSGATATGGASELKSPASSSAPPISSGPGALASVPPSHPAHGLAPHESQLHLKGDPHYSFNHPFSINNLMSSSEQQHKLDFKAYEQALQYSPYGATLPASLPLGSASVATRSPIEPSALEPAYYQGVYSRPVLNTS
CAGCCTGCAGTGCGCTCAGTTAAACAATTCCAAATCAAGGAATTTTGTCTGATACAAGGAATTTGGGGTGTGTTTTCCTAACATGCACCCTGGGTAAATAGACTGCATTTCCTGACCCAGGGGGGGGGGGCCTGAAGCCAATATGCATTGCGGCCACAAGGTGGCGCGTCTGGGCCTGGCAAACCCCTGTGCT: 0.211 ratio
ATCTTCCCCCTCTTCCTTGCCCCACCAGCTCACCTTCCCGGGTTATTTGCAGATAGGAAAATAAATAAAGCCGGCATTGTGCCTCCCTTAGATTCCGCAAACTGCTGTTTGCTCTGGATGAATCATGGTCCTTTGGCGACGCCAGGCTCCGGGAGAGCAAAGCACCGTGTCAGGGCCATGATCCGGGGTGGCC: 0.35 ratio
TGTTCTTCTATGAGACTATTGTCATCTCGGTAATTAAGAATGATTTCCAGTTCTCTGGAACTTCTCGTCTGATCCAGTAGGTCCTTAGCAAATAGATTGCACTGCCGTGACAGCTCTTCATACTCCGACTTGAATTCATTTTCCACCTTGCTCAGTTCCTGAAGTTCCCAACTTAACTGAAAGGCTGTGAGAA: 0.0925 ratio
GCGTCCCCGCCCAGGGCAAAGCCAGGACAAGGCCTTATATATAGGCCAGGAGAGGGGAGGGCGGTGGCTCTCTGCTGGGCCGCCAGACGGAAGGTAATCTGCGCCGGGGACTGGTAGCTCCTGTCTCCAGGCAGGAATGCACAGGCCGCGCCTGAGGCAGGTGCGTCCCCAGGGAGGGTTCTGCCCTCTGAAG: -0.0877 ratio
CGTGTCCTACCATGCGGCTTAAGACTTCTCCAAAACACCGTCCCCCCAAATCCAATAAAATTGCAAATTTCACTGTATTTCACAATATCCTAAATAAACATGAACAGCATGCGTTTCTCTTCCTTGCATCAAATATTAATCTGCCCGTGGCCAGCGCCCGCTCCCCCGCGTGTGTGCGCACGCTGGGTAAACA: 0.436 ratio

Set 3 — method: RNA Bind-n-Seq; molecule type: RNA; matrix: in vitro; concentration: 1 µM; notes: whole 134-nt RNA, ends assumed; with: 150 mM KCl; relative to: input library; direction: higher = stronger binding; measurement: log2 enrichment
Target: Ras GTPase-activating protein-binding protein 1, RRM domain (G3BP1, Homo sapiens, UniProt Q13283)
Chain of UniProt Q13283 (whole entry, looked up): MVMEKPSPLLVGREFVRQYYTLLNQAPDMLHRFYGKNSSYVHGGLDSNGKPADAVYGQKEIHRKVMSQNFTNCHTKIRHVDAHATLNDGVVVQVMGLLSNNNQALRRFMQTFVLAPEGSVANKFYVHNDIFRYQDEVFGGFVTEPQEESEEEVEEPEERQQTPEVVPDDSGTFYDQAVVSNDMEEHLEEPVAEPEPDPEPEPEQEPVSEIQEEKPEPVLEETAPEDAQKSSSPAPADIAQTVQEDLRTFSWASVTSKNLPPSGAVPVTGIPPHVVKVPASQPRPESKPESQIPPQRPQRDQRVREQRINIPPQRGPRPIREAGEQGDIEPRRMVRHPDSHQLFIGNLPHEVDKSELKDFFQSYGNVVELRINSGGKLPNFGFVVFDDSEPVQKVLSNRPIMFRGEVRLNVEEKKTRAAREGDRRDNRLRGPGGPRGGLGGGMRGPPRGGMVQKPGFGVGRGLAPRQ
All sequences stand within: GGGAGUUCUACAGUCCGACGAUC … UGGAAUUCUCGGGUGUCAAGG
GUCCUGUGCUACACAUCGUAUGUACCGAAUCGGGGAAAAAGGGAAAAAGGAAAAAGGGAAAGUAUUAUGUUACGCCGUUCGGAUCUGCAC: -0.02
UCCUGUGCUACACAUCGUAUGUACCGAAUCAAACCCCCCCAAAUUUUUUUAAACCCAAAAAAGUAUUAUGUUACGCCGUUCGGAUCUGCA: -0.723
AAGUCCUGUGCUACACAUCGUAUGUACCGAAUCGGGGUUUUUGGGGAGGGGAGGGGAAAGUAUUAUGUUACGCCGUUCGGAUCUGCACUU: 0.981
AAGUCCUGUGCUACACAUCGUAUGUACCGAAUCGGGAAAAAAAGGGUGGGUUUGGGAAAGUAUUAUGUUACGCCGUUCGGAUCUGCACUU: 0.599
UUCACACCAAGCUGGGGAACAUCAAGACCUUAAACCUGGCAGGCAACCUCCUAGAGAGUCUGAGUGGCCUGCACAAGCUCUACUCACUGG: -0.268
GCAGGAAGUAAAAAUAAAUGGAAAUGCUUCGGAUAGUGGCAGGGGUGGGGGUUGCUAAGGAAAGGGUGGGAUGGGAGUGGGUAAAGAGUU: 1.01
CCUGUGCUACACAUCGUAUGUACCGAAUCGGGGUUUUUUGGGGUUUUUUGGGGUUUUUUGGAAAGUAUUAUGUUACGCCGUUCGGAUCUG: -0.254
CCUCAAGUCCUGUGCUACACAUCGUAUGUACCGAAUCGGCGGGGCGGGCGGGAAAGUAUUAUGUUACGCCGUUCGGAUCUGCACUUCCAG: 0.182

Set 4 — read-out: enzyme activity; action: inhibitor; concentration: 20 µM; notes: primary screen; measurement: inhibition
Target: Replicase polyprotein 1ab, main protease (rep, Severe acute respiratory syndrome coronavirus 2, UniProt P0DTD1)
C[Se]CCC(N)C(=O)O (stereo not shown): 46.1%
C[n+]1ccc(/C=C/c2c[nH]c3ccccc23)cc1: 27.2%
COc1cc(/C=C(\C#N)C(N)=O)cc(CSc2nc3ccccc3s2)c1O: 77.1%

Set 5 — action: inhibitor; concentration: 20 µM; measurement: inhibition
Target: Replicase polyprotein 1ab, nsp13 helicase (rep, Severe acute respiratory syndrome coronavirus 2, UniProt P0DTD1)
Cn1cc(C2=C(c3cn(C4CCN(Cc5ccccn5)CC4)c4ccccc34)C(=O)NC2=O)c2ccccc21: 11.7%
C[N+](C)(C)CCOP(=O)([O-])OC[C@H](O)CO: 1.87%
Cc1c(N(C)C)c(=O)n(-c2ccccc2)n1C: 0.44%
COc1ccc(OC)c(C2C(C#N)=C(N)Oc3n[nH]c(-c4ccc5ccccc5c4)c32)c1 (stereo not shown): -3.2%
C[C@@H](NCCc1ccc(O)cc1)[C@@H](O)c1ccc(O)cc1 (racemic): 2.69%
O=C(c1cc(C2CC2)on1)N(C1CCCCC1)C1CCCCC1: 7.28%
CCn1nc(C)c2c1C(c1ccccc1)=NCC(=O)N2: 0.51%
CC1(N2CCC(n3c([C@@H]4CCCNC4)nc4ccccc43)CC2)CCCCCCC1: 1.89%
CCOC(=O)c1ccc(C#Cc2ccc3c(c2)C(C)(C)CCS3)nc1: 12%
CCCCCCCCCCC(CO)CCCCCCCC (stereo not shown): 5.95%
Cc1cccc(OCC(O)CNC(C)(C)C)c1C (stereo not shown): 4.99%
C/C(=C(\CCOP(=O)(O)O)SC(=O)c1ccccc1)N(C=O)Cc1cnc(C)nc1N: 0.37%
CC(C)(C)c1cc(C(=O)/C=C/c2ccc(C(=O)O)cc2)cc(C(C)(C)C)c1: 25.7%
COC1(C[S@@+]([O-])c2ccccc2)CCN(CCc2c[nH]c3ccc(F)cc23)CC1: 5.53%
NC(CO)C(=O)NNCc1ccc(O)c(O)c1O (stereo not shown): 30.9%
N[C@@H](CSCCCO)C(=O)O: 9.45%
CCOC(=O)C1=C(C)NC(c2ccccc2)=C(C(=O)OCc2ccc([N+](=O)[O-])cc2)C1C#Cc1ccccc1 (stereo not shown): 1.53%
Cc1ccc(C(=O)N(CCCN)[C@@H](c2nc3cc(Cl)ccc3c(=O)n2Cc2ccccc2)C(C)C)cc1: 5.99%
Oc1ccc(-c2nc3cc(O)cc(Br)c3o2)cc1: 8.45%
CCCCCCCCCCCCCCCCCCCCCC(=O)Nc1ccn([C@@H]2O[C@H](CO)[C@@H](O)[C@@H]2O)c(=O)n1: 2.47%
CC(C)/N=c1\cc2n(-c3ccc(Cl)cc3)c3ccccc3nc-2cc1Nc1ccc(Cl)cc1: 4.72%

Set 6 — cell line: HEK-293T-ACE2; concentration: concentration not given; relative to: vehicle; measurement: cell number
CN[C@H]1C(=O)N[C@@H]2Cc3ccc(cc3)Oc3cc4cc(c3O[C@@H]3O[C@H](C(=O)O)[C@@H](O)[C@H](O)[C@H]3NC(=O)CCCCCCCCC(C)C)Oc3ccc(cc3Cl)[C@@H](O)[C@@H]3NC(=O)[C@H](NC(=O)[C@@H]4NC(=O)[C@@H](NC2=O)c2cc(cc(O)c2Cl)Oc2cc1ccc2O)c1ccc(O)c(c1)-c1c(O[C@H]2O[C@H](CO)[C@@H](O)[C@H](O)[C@@H]2O)cc(O)cc1[C@@H](C(=O)O)NC3=O: 95.8%
COS(=O)(=O)[O-].C[N+]1(C)CCC(=C(c2ccccc2)c2ccccc2)CC1: 103%
COc1c(-c2ccc3cc(NS(C)(=O)=O)ccc3c2)cc(-n2ccc(=O)[nH]c2=O)cc1C(C)(C)C: 102%

Some of these lines once more (set 4):
C[Se]CCC(N)C(=O)O (stereo not shown): 46.1%
C[n+]1ccc(/C=C/c2c[nH]c3ccccc23)cc1: 27.2%
COc1cc(/C=C(\C#N)C(N)=O)cc(CSc2nc3ccccc3s2)c1O: 77.1%
